Results collected from several papers.
Numbered parts are unrelated; each lists some results of a single study.
Sequence of UniProt P33981 (whole entry, looked up): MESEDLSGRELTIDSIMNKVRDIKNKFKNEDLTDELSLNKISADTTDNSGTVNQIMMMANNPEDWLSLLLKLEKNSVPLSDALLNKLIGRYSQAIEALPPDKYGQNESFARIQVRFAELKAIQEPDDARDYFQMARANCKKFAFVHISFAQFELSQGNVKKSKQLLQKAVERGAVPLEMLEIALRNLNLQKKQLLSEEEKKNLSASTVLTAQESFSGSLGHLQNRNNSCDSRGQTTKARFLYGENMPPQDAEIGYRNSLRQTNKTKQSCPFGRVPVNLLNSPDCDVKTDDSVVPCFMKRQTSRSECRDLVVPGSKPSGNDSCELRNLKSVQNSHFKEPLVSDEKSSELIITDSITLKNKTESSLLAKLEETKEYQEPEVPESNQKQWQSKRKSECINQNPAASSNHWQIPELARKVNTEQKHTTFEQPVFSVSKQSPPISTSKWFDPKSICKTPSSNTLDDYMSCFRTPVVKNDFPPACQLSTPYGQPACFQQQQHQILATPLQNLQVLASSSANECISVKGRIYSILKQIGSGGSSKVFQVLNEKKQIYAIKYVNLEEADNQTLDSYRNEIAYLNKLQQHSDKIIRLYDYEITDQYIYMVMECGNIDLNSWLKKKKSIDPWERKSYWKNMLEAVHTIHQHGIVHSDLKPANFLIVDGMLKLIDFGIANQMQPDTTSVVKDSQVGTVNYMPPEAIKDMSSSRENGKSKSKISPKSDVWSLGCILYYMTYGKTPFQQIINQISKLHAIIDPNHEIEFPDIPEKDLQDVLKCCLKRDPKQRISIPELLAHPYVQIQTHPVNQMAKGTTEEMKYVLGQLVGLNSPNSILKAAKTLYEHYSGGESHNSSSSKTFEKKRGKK
Sequence of UniProt Q07912 (whole entry, looked up): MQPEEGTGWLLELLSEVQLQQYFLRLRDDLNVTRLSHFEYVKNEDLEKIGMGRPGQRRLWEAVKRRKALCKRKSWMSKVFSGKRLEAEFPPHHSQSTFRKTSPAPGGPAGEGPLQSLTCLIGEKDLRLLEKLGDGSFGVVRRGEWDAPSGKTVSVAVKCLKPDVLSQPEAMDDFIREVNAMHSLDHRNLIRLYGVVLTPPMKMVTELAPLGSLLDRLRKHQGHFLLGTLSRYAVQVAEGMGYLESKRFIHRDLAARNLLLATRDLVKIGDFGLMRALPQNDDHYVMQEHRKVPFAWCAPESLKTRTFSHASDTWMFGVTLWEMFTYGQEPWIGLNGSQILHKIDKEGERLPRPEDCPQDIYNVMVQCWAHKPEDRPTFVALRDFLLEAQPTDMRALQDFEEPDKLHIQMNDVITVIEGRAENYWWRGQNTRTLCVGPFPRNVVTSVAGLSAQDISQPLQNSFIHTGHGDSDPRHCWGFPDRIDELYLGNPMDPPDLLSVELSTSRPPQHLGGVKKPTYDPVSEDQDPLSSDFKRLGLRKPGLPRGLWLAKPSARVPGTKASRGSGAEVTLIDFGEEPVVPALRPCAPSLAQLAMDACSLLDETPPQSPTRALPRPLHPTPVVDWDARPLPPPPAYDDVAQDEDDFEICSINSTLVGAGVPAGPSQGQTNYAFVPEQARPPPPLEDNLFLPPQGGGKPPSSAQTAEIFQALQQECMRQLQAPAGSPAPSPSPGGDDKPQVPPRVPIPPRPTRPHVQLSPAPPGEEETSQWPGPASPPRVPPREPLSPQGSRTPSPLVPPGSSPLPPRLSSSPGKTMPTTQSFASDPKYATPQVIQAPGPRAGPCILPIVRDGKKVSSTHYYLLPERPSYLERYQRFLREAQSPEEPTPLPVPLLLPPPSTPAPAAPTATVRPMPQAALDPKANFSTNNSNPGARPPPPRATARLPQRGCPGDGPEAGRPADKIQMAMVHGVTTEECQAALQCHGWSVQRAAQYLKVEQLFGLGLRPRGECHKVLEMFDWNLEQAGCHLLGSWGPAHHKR
Sequence of UniProt P78368 (whole entry, looked up): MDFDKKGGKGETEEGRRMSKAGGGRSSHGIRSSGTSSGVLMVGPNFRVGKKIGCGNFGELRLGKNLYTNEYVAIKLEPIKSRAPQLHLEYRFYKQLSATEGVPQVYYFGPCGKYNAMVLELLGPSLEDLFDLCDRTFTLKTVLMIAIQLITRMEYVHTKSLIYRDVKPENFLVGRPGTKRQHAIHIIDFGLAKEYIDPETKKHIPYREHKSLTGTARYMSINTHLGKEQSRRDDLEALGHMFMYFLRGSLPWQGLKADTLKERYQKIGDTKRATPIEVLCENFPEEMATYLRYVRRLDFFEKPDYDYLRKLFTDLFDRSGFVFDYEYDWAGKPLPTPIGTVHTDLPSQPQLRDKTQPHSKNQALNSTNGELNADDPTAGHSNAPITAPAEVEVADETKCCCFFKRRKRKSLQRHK
Sequence of UniProt O75116 (whole entry, looked up): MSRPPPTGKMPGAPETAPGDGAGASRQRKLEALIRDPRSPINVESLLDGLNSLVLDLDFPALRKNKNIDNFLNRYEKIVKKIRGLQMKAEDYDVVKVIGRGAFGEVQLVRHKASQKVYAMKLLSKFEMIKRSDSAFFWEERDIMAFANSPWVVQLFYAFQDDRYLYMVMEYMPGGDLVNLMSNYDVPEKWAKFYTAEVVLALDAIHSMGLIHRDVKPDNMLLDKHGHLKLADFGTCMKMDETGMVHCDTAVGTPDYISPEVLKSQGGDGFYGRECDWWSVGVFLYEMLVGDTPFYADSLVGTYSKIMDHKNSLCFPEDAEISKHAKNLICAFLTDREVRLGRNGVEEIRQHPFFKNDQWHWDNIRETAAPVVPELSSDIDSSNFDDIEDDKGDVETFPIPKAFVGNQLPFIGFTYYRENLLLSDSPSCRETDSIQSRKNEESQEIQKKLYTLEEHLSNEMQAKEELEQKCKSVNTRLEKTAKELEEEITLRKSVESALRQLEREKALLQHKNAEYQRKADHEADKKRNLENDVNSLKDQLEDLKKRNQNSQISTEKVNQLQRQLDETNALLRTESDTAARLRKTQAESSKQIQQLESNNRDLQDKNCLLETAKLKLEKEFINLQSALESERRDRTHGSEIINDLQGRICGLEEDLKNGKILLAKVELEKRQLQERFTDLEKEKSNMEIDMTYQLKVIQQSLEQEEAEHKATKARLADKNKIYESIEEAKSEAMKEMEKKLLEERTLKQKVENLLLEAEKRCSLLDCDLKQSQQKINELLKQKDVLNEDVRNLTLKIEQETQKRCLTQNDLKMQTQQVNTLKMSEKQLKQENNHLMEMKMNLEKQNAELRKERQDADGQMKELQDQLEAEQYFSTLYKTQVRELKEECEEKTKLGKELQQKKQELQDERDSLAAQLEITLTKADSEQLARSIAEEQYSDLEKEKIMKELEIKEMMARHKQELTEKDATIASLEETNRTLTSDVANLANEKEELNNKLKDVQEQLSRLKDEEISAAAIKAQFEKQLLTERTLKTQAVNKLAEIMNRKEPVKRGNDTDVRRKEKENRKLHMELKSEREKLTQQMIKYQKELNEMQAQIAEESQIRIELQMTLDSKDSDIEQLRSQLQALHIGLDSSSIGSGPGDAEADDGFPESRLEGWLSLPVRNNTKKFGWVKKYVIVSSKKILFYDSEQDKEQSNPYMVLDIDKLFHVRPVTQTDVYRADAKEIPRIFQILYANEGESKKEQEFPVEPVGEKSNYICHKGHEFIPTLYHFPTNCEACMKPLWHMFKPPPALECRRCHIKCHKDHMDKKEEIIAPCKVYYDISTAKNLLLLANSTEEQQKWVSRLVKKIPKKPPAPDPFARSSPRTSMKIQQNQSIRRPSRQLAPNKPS
Sequence of UniProt P36507 (whole entry, looked up): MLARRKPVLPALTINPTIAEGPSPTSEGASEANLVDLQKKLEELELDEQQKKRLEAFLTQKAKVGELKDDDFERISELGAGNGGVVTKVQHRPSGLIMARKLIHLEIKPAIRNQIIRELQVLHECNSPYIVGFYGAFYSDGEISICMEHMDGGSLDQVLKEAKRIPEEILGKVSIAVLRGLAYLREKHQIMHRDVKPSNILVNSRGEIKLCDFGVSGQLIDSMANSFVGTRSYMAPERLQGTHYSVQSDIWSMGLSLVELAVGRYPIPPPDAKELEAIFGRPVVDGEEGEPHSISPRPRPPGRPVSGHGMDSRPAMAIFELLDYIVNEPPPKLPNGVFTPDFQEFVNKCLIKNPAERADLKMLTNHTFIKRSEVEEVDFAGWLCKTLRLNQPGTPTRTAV

Series 1 — cell line: mouse MPNST tumor cells; method: high-content immunofluorescence imaging; refers to: nuclear SOX9; tested at: 10 µM; time: 12 h; setting: mean of 2 replicates; baseline: DMSO control; direction: higher = more nuclear SOX9
SMILES | nuclear SOX9 intensity
CC(=O)Nc1c(I)c(NC(C)=O)c(I)c(C(=O)O)c1I | 98.5 % of DMSO
Cc1ncc(Cl)cc1NCc1ccc(C(=O)N[C@@H](CC2CCCC2)C(=O)NC2CC2)s1 | 109 % of DMSO
C[C@@H]1CN(CC(=O)Nc2ccc3c(c2)Cc2cccc(-c4cc(=O)cc(N5CCOCC5)o4)c2S3)C[C@H](C)O1 | 110 % of DMSO
COc1ccccc1CC(=N)N1C[C@@H]2C(=O)CCC(c3ccccc3)(c3ccccc3)[C@@H]2C1 | 136 % of DMSO
CS(=O)(=O)N(Cc1ccco1)C[C@@H](O)Cn1c2ccccc2c2ccccc21 | 97.9 % of DMSO
c1coc(-c2nnc3sc(C4CCCCC4)nn23)c1 | 101 % of DMSO
O=c1cc(NCCCN[C@@H]2CCOc3c(Br)cc(Br)cc32)[nH]c2ccsc12 | 105 % of DMSO
Nc1nc(Cl)nc2c1ncn2[C@@H]1O[C@H](CO)[C@@H](O)[C@H]1O | 105 % of DMSO

Series 2 — method: competition with immobilised ligand; tested at: 1 µM
SMILES: O=C(O)[C@H]1[C@H](Cn2nnc3ccccc3c2=O)CC[C@@H]1C(=O)c1ccc(OCCC2CCOCC2)cc1
target | test | remaining binding [%]
PRKD2 (Homo sapiens, UniProt Q9BZL6) | cell-free assay | 73
CSNK1G2 (Homo sapiens, UniProt P78368) | cell-free assay | 87
CDKL1 (Homo sapiens, UniProt Q00532) | binding | 99
MYLK4 (Homo sapiens, UniProt Q86YV6) | cell-free assay | 100
CDK14 (Homo sapiens, UniProt O94921) | cell-free assay | 100
BRAF (Homo sapiens, UniProt P15056) | cell-free assay | 100
ROCK2 (Homo sapiens, UniProt O75116) | cell-free assay | 80
TNK2 (Homo sapiens, UniProt Q07912) | cell-free assay | 100
PIK3C3 (Homo sapiens, UniProt Q8NEB9) | cell-free assay | 93
STK16 (Homo sapiens, UniProt O75716) | cell-free assay | 85
WNK3 (Homo sapiens, UniProt Q9BYP7) | cell-free assay | 100
MAP2K2 (Homo sapiens, UniProt P36507) | cell-free assay | 100
DAPK1 (Homo sapiens, UniProt P53355) | cell-free assay | 89
DCLK3 (Homo sapiens, UniProt Q9C098) | cell-free assay | 98
TTK (Homo sapiens, UniProt P33981) | cell-free assay | 83
NTRK2 (Homo sapiens, UniProt Q16620) | cell-free assay | 75
HUNK (Homo sapiens, UniProt P57058) | cell-free assay | 71
CLK3 (Homo sapiens, UniProt P49761) | cell-free assay | 100
CDK11B (Homo sapiens, UniProt P21127) | cell-free assay | 88
CAMK1G (Homo sapiens, UniProt Q96NX5) | cell-free assay | 90
SRPK3 (Homo sapiens, UniProt Q9UPE1) | cell-free assay | 84

Series 3 — effect on: RNA clamping; method: fluorescence polarization; tested at: concentration not given; together with: FAM-labelled poly r(AG)8 RNA; direction: higher = more clamping
Target: Eukaryotic initiation factor 4A-I (EIF4A1, Homo sapiens, UniProt P60842)
Sequence of UniProt P60842 (whole entry, looked up): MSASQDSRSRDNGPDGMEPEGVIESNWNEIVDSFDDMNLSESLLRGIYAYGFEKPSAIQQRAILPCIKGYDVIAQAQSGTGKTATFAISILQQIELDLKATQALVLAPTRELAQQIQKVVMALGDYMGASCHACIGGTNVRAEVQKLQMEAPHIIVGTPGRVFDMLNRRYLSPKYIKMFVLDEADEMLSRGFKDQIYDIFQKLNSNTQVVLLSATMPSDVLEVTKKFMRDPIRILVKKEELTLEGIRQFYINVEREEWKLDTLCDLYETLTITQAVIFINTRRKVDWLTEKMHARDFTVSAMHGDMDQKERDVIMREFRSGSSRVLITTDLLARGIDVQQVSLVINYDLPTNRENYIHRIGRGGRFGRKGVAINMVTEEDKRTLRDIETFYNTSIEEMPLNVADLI
Compound | fluorescence polarization change [mP]
COC(=O)[C@H]1[C@@H](O)[C@@]2(O)c3c(OC)cc(OC)cc3N(C)[C@@]2(c2ccc(Br)cc2)[C@@H]1c1ccccc1 | 17.6
COc1ccc([C@@]23Oc4cc(OC)cc(OC)c4[C@]2(O)[C@H](O)[C@H](C(=O)c2ccco2)[C@H]3c2ccccc2OC)cc1 | 32.5
CCCN(CCC)[C@@]12C(=O)[C@H](C(=O)OC)[C@@H](c3ccccc3)[C@]1(c1ccc(OC)cc1)Oc1cc(OC)cc(OC)c12 | 0.2
COC(=O)[C@@H]1[C@@H](O)[C@@]2(O)c3c(OC)cc(F)cc3O[C@@]2(c2ccc(Cl)cc2)[C@H]1c1ccccc1 | 30.2
COc1ccc([C@@]23Oc4cc(OC)cc(OC)c4[C@]2(O)[C@H](O)[C@H](C(=O)c2cc4ccccc4n2C)[C@H]3c2ccccc2)cc1 | 6.5
COC(=O)[C@H]1C(=O)[C@@]2(NCCc3scnc3C)c3c(OC)cc(OC)cc3O[C@@]2(c2ccc(OC)cc2)[C@@H]1c1ccccc1 | -12.1
COC(=O)[C@@H]1[C@@H](O)[C@@]2(O)c3c(OC)cc(OS(=O)(=O)c4ccc(C)cc4)cc3O[C@@]2(c2ccc(OC)cc2)[C@H]1c1ccccc1 | 7.3
C#CCOCCOCCNC(=O)CCCn1c(-c2ccccc2)nc2c(c1=O)[C@@H](c1ccccc1)[C@]1(c3ccc(OC)cc3)Oc3cc(OC)cc(OC)c3[C@]21O | 24.1
O[C@H]1C[C@@H](c2ccccc2)[C@]2(c3ccc(Cl)cc3)Oc3cc(OCCN4CCCC4)ccc3[C@]12O | 75.6
COc1ccc([C@@]23Oc4cc(OC)cc(OC)c4[C@]2(O)c2nc(-c4ccccn4)[nH]c(=O)c2[C@H]3c2ccccc2)cc1 | 5.9
COC(=O)[C@@H]1[C@@H](c2ccccc2)[C@]2(c3ccc(OC)cc3)Oc3cc(OC)cc(OC)c3[C@@]23N=C(c2ccccc2)N[C@@]13O | 24.2

Series 4 — effect on: enzyme activity; mode: inhibitor; tested at: 0.5 µM; baseline: control
Target: Serine/threonine-protein kinase Sgk1 (SGK1, Homo sapiens, UniProt O00141)
Sequence of UniProt O00141 (whole entry, looked up): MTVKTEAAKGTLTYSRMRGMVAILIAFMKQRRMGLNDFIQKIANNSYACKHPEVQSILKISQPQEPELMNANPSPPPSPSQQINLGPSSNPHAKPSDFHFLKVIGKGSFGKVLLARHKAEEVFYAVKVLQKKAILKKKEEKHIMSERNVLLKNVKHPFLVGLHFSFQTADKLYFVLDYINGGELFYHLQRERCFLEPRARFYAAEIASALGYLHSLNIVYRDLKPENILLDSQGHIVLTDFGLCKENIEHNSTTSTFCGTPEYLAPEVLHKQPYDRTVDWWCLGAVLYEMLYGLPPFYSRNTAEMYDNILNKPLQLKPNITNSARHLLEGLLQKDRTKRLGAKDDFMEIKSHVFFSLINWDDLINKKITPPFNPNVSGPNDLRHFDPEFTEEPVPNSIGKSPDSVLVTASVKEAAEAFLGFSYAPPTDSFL
Compound | remaining activity [%]
Nc1cccc(-c2cc3c(Oc4cccc(O)c4)ncnc3[nH]2)c1 | 101
CN(C)C[C@H]1CCn2c(c(C3=C(c4cn(C)c5ccccc45)C(=O)NC3=O)c3ccccc32)C1 | 72.9
COc1cc2ncnc(Nc3cccc(Cl)c3)c2cc1OC | 91.3
O=C(NC(NC(=S)Nc1ccc(F)c([N+](=O)[O-])c1)C(Cl)(Cl)Cl)C(c1ccccc1)c1ccccc1 (stereo not drawn) | 93.1
O=c1cc(-c2cccc3c2Sc2ccccc2S3)oc(N2CCOCC2)c1 | 90.6
N#Cc1c(NC(=O)c2cccc3ccccc23)sc2c1CCCC2 | 108
c1ccc(-c2cnc(Nc3ccc(OCCN4CCCC4)cc3)s2)cc1 | 83.6
COc1cc2c(cc1OC)-c1[nH]nc(Nc3cccc(F)c3)c1C2 | 99.8
Cc1nc2cc3nc(-c4cccs4)cnc3cc2n1C | 95.9
CCOc1nc(NC(=O)Cc2cc(OC)ccc2OC)cc(N)c1C#N | 105
Cc1cn(-c2cc(NC(=O)c3ccc(C)c(Nc4nccc(-c5cccnc5)n4)c3)cc(C(F)(F)F)c2)cn1 | 125
C[C@@H]1CCN(C(=O)CC#N)C[C@@H]1N(C)c1ncnc2[nH]ccc12 | 123
CCN(CC)CCNC(=O)c1c(C)[nH]c(/C=C2\C(=O)Nc3ccc(F)cc32)c1C | 62.8
Cn1nc2c3c(cccc31)C(=O)c1ccccc1-2 | 94.8
CCN(CC)C(=O)c1ccc(Nc2nc(OCC3CCCCC3)c3[nH]cnc3n2)cc1 | 84.7
O=C(Nc1cccc(Nc2nccc(Nc3cccc(C(F)(F)F)c3)n2)c1)C1CC1 | 103
c1ccc(-c2[nH]ncc2-c2ccnc3ccccc23)nc1 | 103
Cc1cc2ncc(-c3ccccc3)nc2cc1C | 103
COc1cc2ncnc(Nc3ccc(O)c(Br)c3)c2cc1OC | 95.7
O=C1C(Cl)=C(N2C(=O)CCC2=O)C(=O)c2ccccc21 | 104
CCN(CC)CCNC(=O)c1c(C)[nH]c(/C=C2\C(=O)Nc3ccc(Cl)cc32)c1C | 49.6
N#C/C(=C\c1ccc(O)c(O)c1)C(=O)NCc1ccccc1 | 103
O=C1c2ccccc2-c2n[nH]c3cccc1c23 | 59.5

A few entries again (series 4):
Compound | remaining activity [%]
C[C@@H]1CCN(C(=O)CC#N)C[C@@H]1N(C)c1ncnc2[nH]ccc12 | 123
CCN(CC)CCNC(=O)c1c(C)[nH]c(/C=C2\C(=O)Nc3ccc(F)cc32)c1C | 62.8
Cn1nc2c3c(cccc31)C(=O)c1ccccc1-2 | 94.8
CCN(CC)C(=O)c1ccc(Nc2nc(OCC3CCCCC3)c3[nH]cnc3n2)cc1 | 84.7
